Measurements collected from several papers.
Several values in a cell are separate wells, animals, samples, runs or records. Numbers after ± are the reported error.
AURKA: Aurora kinase A (AURKA, Homo sapiens, UniProt O14965)
Sequence of UniProt O14965 (whole entry, looked up): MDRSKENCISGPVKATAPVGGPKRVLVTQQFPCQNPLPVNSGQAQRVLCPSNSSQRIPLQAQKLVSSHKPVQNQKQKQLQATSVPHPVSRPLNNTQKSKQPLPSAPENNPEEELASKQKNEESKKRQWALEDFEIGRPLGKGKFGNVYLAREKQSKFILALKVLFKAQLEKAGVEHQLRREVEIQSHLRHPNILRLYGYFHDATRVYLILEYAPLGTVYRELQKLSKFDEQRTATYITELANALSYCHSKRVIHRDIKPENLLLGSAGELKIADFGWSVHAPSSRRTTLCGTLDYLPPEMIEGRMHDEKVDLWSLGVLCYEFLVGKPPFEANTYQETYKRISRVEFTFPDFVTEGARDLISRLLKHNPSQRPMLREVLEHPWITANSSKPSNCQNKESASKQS

The inhibition of `C#CCN1C(=O)C(CC#C)(C(=O)OCC)Oc2ccccc21` (stereo not drawn) is reported as 1% (L02; cell growth or viability, CCK-8; 100 µM, 72 h).
Under “organ-to-brain weight ratio”, `O=C1NC2(CC2)COc2ncc(F)cc2[C@H]2COCCN2c2ccn3ncc1c3n2` is recorded as 3.6 ± 0.59% (Sprague-Dawley rat, male, adrenals; oral, 10 mg/kg/day, 4 weeks, end of treatment).
With `CSCC[C@H](NC(=O)[C@@H](NC(=O)[C@H](CCC(N)=O)NC(=O)[C@H](CO)NC(=O)[C@@H](N)C(C)C)[C@@H](C)O)C(=O)N[C@@H](CCCNC(=N)N)C(=O)N[C@@H](CCC(N)=O)C(=O)N[C@H](C(=O)N[C@@H](C)C(=O)N[C@H](C(=O)N1CCC[C@H]1C(=O)N[C@@H](CC(C)C)C(=O)N[C@@H](CC(C)C)C(=O)N[C@@H](Cc1c[nH]c2ccccc12)C(=O)N[C@@H](Cc1ccccc1)C(=O)N[C@@H](Cc1c[nH]c2ccccc12)C(=O)N[C@H](C(=O)NCC(=O)N[C@@H](CO)C(=O)N[C@@H](CC(C)C)C(=O)NCCOCCOCCOCCOCCOCCOCCOCCOCCOCCOCCOCCOCCC(=O)N[C@@H](CS)C(N)=O)[C@@H](C)O)C(C)C)[C@@H](C)O` the selectivity ratio was 45 ± 17 (Calu-1 lung mucoepidermoid carcinoma; cell binding, phage binding, measured: output/input phage; 10 min, 37 °C; relative to: control phage).
For `C=CCN1C(=O)C(CC=C)(C(=O)OCC)Oc2cc(F)ccc21` (stereo not drawn), the inhibition was 0.21% (HaCaT; cell growth or viability, CCK-8; 0.78 µM, 72 h).
`CC(C)(C)C(=O)OCOP(=O)(OCOC(=O)C(C)(C)C)C1CCCN(O)C1=O` (stereo not drawn) gave a log LC50 of greater than -4 log M (RPMI-8226).
`CC(C)CC(O)(CC(C)C)c1cn(C(=O)N2CCCC2)nn1` has an SILAC ratio of 0.93 (mouse T-cells; N-terminal labelling enrichment, measured: Zfp91 N-terminal peptides; 1 nM, 6 h, protein median; relative to: DMSO).
With `CSc1ccc2c(c1)c(CCN)c(C)n2Cc1ccccc1Cl` the EC50 was 900 nM (BV-2; phagocytosis, high-content imaging; geometric mean, with: pHrodo-myelin uptake).
With `N[C@H](C(=O)N1CCCC1)C1CCN(c2nccc3c(-c4ncc(Cl)cc4Cl)cccc23)CC1` the inhibition was -4% (AURKA; enzyme activity, inhibitor; 10 µM).
With `CC(C)C[C@H](NC(=O)[C@H](CC(=O)O)NC(=O)CNC(=O)[C@@H](N)CCCNC(=N)N)C(=O)N[C@@H](C)C(=O)N[C@H](C(=O)N[C@@H](CC(C)C)C(=O)N[C@@H](CCCNC(=N)N)C(=O)N[C@@H](CCC(N)=O)C(=O)N[C@@H](CC(C)C)C(=O)N[C@@H](C)C(=O)N[C@@H](CCC(N)=O)C(=O)N[C@@H](CCC(=O)O)C(=O)N[C@@H](CC(=O)O)C(=O)NCC(=O)N[C@H](C(=O)N[C@H](C(=O)NCC(=O)N[C@H](C(=O)N[C@@H](CCCNC(=N)N)C(=O)NCCOCCOCCOCCOCCOCCOCCOCCOCCOCCOCCOCCOCCC(=O)N[C@@H](CS)C(N)=O)C(C)C)C(C)C)C(C)C)[C@@H](C)O` the selectivity ratio was 2 ± 0.45 (H460 lung large cell carcinoma; cell binding, phage binding, measured: output/input phage; 10 min, 37 °C; relative to: control phage).
`O=C(O)c1ccc(-c2nc(-c3ccccc3Cl)c3sccn23)cc1`: “CD61 fluorescence intensity” 1.07 fold change and 1.03 fold change (K562; megakaryocyte differentiation, flow cytometry; 0.01 mM, 72 h; relative to: untreated).
With `COc1ccccc1-c1ccncc1C(=O)Nc1nnc(OCc2ccc(Cl)cc2)s1` the colony survival was 54% (DLD-1 BRCA2-/-; 0.5 µM, mean of 3 replicates; relative to: untreated).
With `Cc1cc(Oc2nc(N3CC[C@@H](c4ccncc4)C3)ncc2F)[nH]n1` the IC50 was greater than 100000 nM (SNB-75; cell proliferation; brain cancer).
`CS(C)(=O)=Nc1ccc(-c2ccc(-c3nc4cc(O[C@@H]5CO[C@H]6[C@@H]5OC[C@H]6O)[nH]c4cc3F)cc2)cc1` has an inhibition of 20% (AURKA; enzyme activity, inhibitor; 10 µM).
The remaining activity of `O=C1NC(=O)c2c1c1cc(F)c[n+]3c1c1c2c2cc(O)ccc2[n]1[Ru-4]312([N]=C=S)[S+]3CC[S+]1CC[S+]2CC3` (stereo not drawn) is reported as 44% (AURKA; enzyme activity; 100 nM, human enzyme, with: 10 µM ATP; relative to: untreated).
Under “maximum metastasis uptake”, `CC[C@H](C)[C@H](NC(=O)[C@H](CO)NC(=O)[C@H](Cc1ccc(O)cc1)NC(=O)[C@H](Cc1ccc(O)cc1)NC(=O)[C@H](CC(N)=O)NC(=O)CNC(=O)[C@H](CO)NC(=O)[C@H](Cc1ccc(O)cc1)NC(=O)[C@H](CO)NC(=O)[C@H](CO)NC(=O)[C@H](CC(N)=O)NC(=O)COCCOCCNC(=O)CN1CCN(CC(=O)O)CCN(CC(=O)O)CCN(CC(=O)O)CC1)C(=O)N[C@@H](CC(C)C)C(N)=O` [copper-64 labelled] is recorded as 27.9 %IA/cc (dynamic PET; tamoxifen-induced PDAC mouse model, metastases; 3.5 min, CLDN4-expressing tumours).

Repeated from above:
With `CC(C)C[C@H](NC(=O)[C@H](CC(=O)O)NC(=O)CNC(=O)[C@@H](N)CCCNC(=N)N)C(=O)N[C@@H](C)C(=O)N[C@H](C(=O)N[C@@H](CC(C)C)C(=O)N[C@@H](CCCNC(=N)N)C(=O)N[C@@H](CCC(N)=O)C(=O)N[C@@H](CC(C)C)C(=O)N[C@@H](C)C(=O)N[C@@H](CCC(N)=O)C(=O)N[C@@H](CCC(=O)O)C(=O)N[C@@H](CC(=O)O)C(=O)NCC(=O)N[C@H](C(=O)N[C@H](C(=O)NCC(=O)N[C@H](C(=O)N[C@@H](CCCNC(=N)N)C(=O)NCCOCCOCCOCCOCCOCCOCCOCCOCCOCCOCCOCCOCCC(=O)N[C@@H](CS)C(N)=O)C(C)C)C(C)C)C(C)C)[C@@H](C)O` the selectivity ratio was 2 ± 0.45 (H460 lung large cell carcinoma; cell binding, phage binding, measured: output/input phage; 10 min, 37 °C; relative to: control phage).
`O=C(O)c1ccc(-c2nc(-c3ccccc3Cl)c3sccn23)cc1`: “CD61 fluorescence intensity” 1.07 fold change and 1.03 fold change (K562; megakaryocyte differentiation, flow cytometry; 0.01 mM, 72 h; relative to: untreated).
